Results pooled from the literature.
≈ marks a conversion by molar mass, not a printed value.
Organism: Pseudomonas aeruginosa

SMILES | assay | test system | setting | how to read | endpoint | result
O=C1NC(=O)c2c(NCCCc3cccc(O)c3)cccc21 |  | PAO1 | concentration not given, 18 h, with: norfloxacin 0.9 µg/mL | baseline: norfloxacin alone | survival reduction | ~50 fold
CCCCCCCCCC(=O)NCCCC[C@H](NC(=O)[C@H](CCCCN)NC(=O)[C@@H]1CSCC(=O)N[C@@H](CCCCN)C(=O)N[C@@H](CC(C)C)C(=O)N[C@@H](CCCCN)C(=O)N[C@H]2CCCCNC(=O)[C@H](CCCCN)NC(=O)[C@H](CC(C)C)NC(=O)[C@H](CCCCN)NC(=O)CSC[C@H](NC(=O)[C@H](CC(C)C)NC(=O)[C@H](CC(C)C)NC(=O)[C@H](CCCCN)NC2=O)C(=O)N[C@@H](CC(C)C)C(=O)N[C@@H](CC(C)C)C(=O)N[C@@H](CC(C)C)C(=O)N1)C(N)=O |  | PAO1 | 24 to 25 h |  | minimal biofilm inhibitory concentration | 128 µg/mL
CC[C@H](C)[C@H](NC(=O)[C@H](Cc1c[nH]cn1)NC(=O)[C@H](CCCCNC(=O)[C@@H](NC(=O)[C@H](CCCCN)NC(=O)CSC[C@H](NC(=O)[C@H](Cc1ccccc1)NC(=O)[C@H](CCCCNC(=O)[C@H](CC(C)C)NC(=O)[C@@H]1CCCN1C(=O)[C@H](CCCCN)NC(=O)CCS[C@@H]1O[C@H](CO)[C@H](O)[C@H](O)[C@H]1O)NC(=O)[C@H](CC(C)C)NC(=O)[C@@H]1CCCN1C(=O)[C@H](CCCCN)NC(=O)C[C@@H]1O[C@@H](C)[C@@H](O)[C@@H](O)[C@@H]1O)C(N)=O)[C@@H](C)CC)NC(=O)[C@@H](NC(=O)[C@H](CCCCN)NC(=O)CSC[C@H](NC(=O)[C@H](Cc1ccccc1)NC(=O)[C@H](CCCCNC(=O)[C@H](CC(C)C)NC(=O)[C@@H]1CCCN1C(=O)[C@H](CCCCN)NC(=O)CCS[C@@H]1O[C@H](CO)[C@H](O)[C@H](O)[C@H]1O)NC(=O)[C@H](CC(C)C)NC(=O)[C@@H]1CCCN1C(=O)[C@H](CCCCN)NC(=O)C[C@@H]1O[C@@H](C)[C@@H](O)[C@@H](O)[C@@H]1O)C(N)=O)[C@@H](C)CC)C(N)=O | biofilm formation | PAO1 | 24 h |  | MBIC | > 45 µM
C[C@@](O)(C(F)F)[C@H](NC(=O)c1ccc(C#CC#CC2CC2)cc1)C(=O)NO | agar dilution | clinical isolates, susceptible and MDR/XDR |  |  | MIC90 | 1 µg/mL (≈ 2.66 µM)
CC[C@H](C)[C@H](NC(=O)[C@H](CCCCN)NC(=O)[C@H](CCCCN)NC(=O)[C@H](CC(C)C)NC(=O)[C@H](CCCCN)NC(=O)[C@H](CCC(=O)O)NC(=O)[C@H](CCCCN)NC(=O)[C@@H](NC(=O)[C@H](CCCCN)NC(=O)[C@H](CC(N)=O)NC(=O)[C@H](CCCNC(=N)N)NC(=O)[C@H](Cc1ccccc1)NC(=O)[C@H](CCCCN)NC(=O)[C@H](CCCNC(=N)N)NC(=O)[C@H](CC(C)C)NC(=O)[C@H](CCCNC(=N)N)NC(=O)[C@H](CCCCN)NC(=O)[C@H](CCCNC(=N)N)NC(=O)[C@H](CC(C)C)NC(=O)[C@@H](N)CC(C)C)[C@@H](C)CC)C(=O)NCC(=O)N[C@@H](CCC(N)=O)C(=O)N[C@@H](CCCCN)C(=O)N[C@H](C(=O)N[C@@H](CCC(N)=O)C(=O)NCC(=O)N[C@@H](Cc1ccccc1)C(=O)N[C@H](C(=O)N1CCC[C@H]1C(=O)N[C@@H](CCCCN)C(=O)N[C@@H](CC(C)C)C(=O)N[C@H](C(=O)N1CCC[C@H]1C(=O)N[C@@H](CCCNC(=N)N)C(=O)N[C@H](C(=O)N[C@@H](CCC(=O)O)C(=O)N[C@@H](CO)C(=O)O)[C@@H](C)O)C(C)C)C(C)C)[C@@H](C)CC | inhibition zone | FRD1 | LB agar, overnight |  | lethal concentration | 2.96 µM
CC(CCC(=O)[O-])C1CCC2C3C(O)CC4CC(O)CCC4(C)C3CCC12C.C[N+](C)(C)CC(O)CC(=O)O (stereo not shown) |  | TISTR357 | 1 mg per disc, 18 to 24 h, 37 °C |  | antibacterial activity | inactive
CC[C@H](C)[C@H](NC(=O)[C@H](CCCCN)NC(=O)[C@H](CCCCN)NC(=O)[C@H](CC(C)C)NC(=O)[C@H](CCCCN)NC(=O)[C@H](CCC(=O)O)NC(=O)[C@H](CCCCN)NC(=O)[C@@H](NC(=O)[C@H](CCCCN)NC(=O)[C@H](CC(N)=O)NC(=O)[C@H](CCCNC(=N)N)NC(=O)[C@H](Cc1ccccc1)NC(=O)[C@H](CCCCN)NC(=O)[C@H](CCCNC(=N)N)NC(=O)[C@H](CC(C)C)NC(=O)[C@H](CCCNC(=N)N)NC(=O)[C@H](CCCCN)NC(=O)[C@H](CCCNC(=N)N)NC(=O)[C@H](CC(C)C)NC(=O)[C@@H](N)CCCNC(=N)N)[C@@H](C)CC)C(=O)NCC(=O)N[C@@H](CCC(N)=O)C(=O)N[C@@H](CCCCN)C(=O)N[C@H](C(=O)N[C@@H](CCC(N)=O)C(=O)NCC(=O)N[C@@H](Cc1ccccc1)C(=O)N[C@H](C(=O)N1CCC[C@H]1C(=O)N[C@@H](CCCCN)C(=O)N[C@@H](CC(C)C)C(=O)N[C@@H](CCC(N)=O)C(=O)N1CCC[C@H]1C(=O)N[C@@H](CO)C(=O)N[C@@H](CCCCN)C(=O)N[C@@H](CCC(N)=O)C(=O)N[C@@H](CO)C(=O)O)C(C)C)[C@@H](C)CC | inhibition zone method | 374, LB 0.8% agar with 154 mM NaCl | overnight, 37 °C |  | lethal concentration | 3.89 µM
CC[C@H](C)[C@H](NC(=O)[C@H](CCCNC(=N)N)NC(=O)[C@H](CCCCN)NC(=O)[C@H](CC(C)C)NC(=O)[C@H](CC(C)C)NC(=O)CN)C(=O)N[C@@H](CCCCN)C(=O)N[C@H](C(=O)N[C@@H](CC(C)C)C(=O)N[C@@H](CC(C)C)C(=O)NCCCC[C@H](NC(=O)[C@H](CC(C)C)NC(=O)[C@H](CC(C)C)NC(=O)[C@@H](NC(=O)[C@H](CCCCN)NC(=O)[C@@H](NC(=O)[C@H](CCCNC(=N)N)NC(=O)[C@H](CCCCN)NC(=O)[C@H](CC(C)C)NC(=O)[C@H](CC(C)C)NC(=O)CN)[C@@H](C)CC)[C@@H](C)O)C(N)=O)[C@@H](C)O | checkerboard | ATCC 27853 | with: rifampicin |  | FIC index | 0.375
CC[C@H](C)[C@H](NC(=O)[C@H](CCCNC(=N)N)NC(=O)[C@@H](NC(=O)[C@H](C)NC(=O)[C@@H](NC(=O)[C@@H](NC(=O)[C@H](CC(C)C)NC(=O)[C@H](CCCNC(=N)N)NC(=O)[C@@H](N)C(C)C)[C@@H](C)CC)C(C)C)C(C)C)C(=O)N[C@@H](Cc1c[nH]c2ccccc12)C(=O)N[C@@H](CCCNC(=N)N)C(=O)N[C@@H](CCCNC(=N)N)C(N)=O |  |  | with: serine hydroxamate 500 µM |  | concentration abolishing (p)ppGpp accumulation | 5 µg/mL
CCCCCCCCCC(=O)NCCCC[C@H](NC(=O)[C@H](CCCCN)NC(=O)[C@@H]1CSCC(=O)N[C@@H](CCCCN)C(=O)N[C@@H](CC(C)C)C(=O)N[C@@H](CCCCN)C(=O)NCCCC[C@@H]2NC(=O)[C@H](CCCCN)NC(=O)[C@H](CC(C)C)NC(=O)[C@H](CCCCN)NC(=O)CSC[C@H](NC(=O)[C@H](CC(C)C)NC(=O)[C@H](CC(C)C)NC(=O)[C@H](CCCCN)NC2=O)C(=O)N[C@@H](CC(C)C)C(=O)N[C@@H](CC(C)C)C(=O)N[C@@H](CC(C)C)C(=O)N1)C(N)=O |  | PAO1 | 24 to 25 h |  | minimal biofilm inhibitory concentration | 128 µg/mL

Repeated from above:
SMILES | assay | test system | setting | how to read | endpoint | result
C[C@@](O)(C(F)F)[C@H](NC(=O)c1ccc(C#CC#CC2CC2)cc1)C(=O)NO | agar dilution | clinical isolates, susceptible and MDR/XDR |  |  | MIC90 | 1 µg/mL (≈ 2.66 µM)
